Measurements of several laboratories.
Lines come from different studies, so protocols differ. Values joined by “and” are separate records of one study, mostly repeats; a detail may differ. ± marks the error that the study gave.
Cacna1c: Voltage-dependent L-type calcium channel subunit alpha-1C (Cacna1c, Mus musculus, UniProt Q01815)
UniProt Q01815, sequence (whole entry, looked up): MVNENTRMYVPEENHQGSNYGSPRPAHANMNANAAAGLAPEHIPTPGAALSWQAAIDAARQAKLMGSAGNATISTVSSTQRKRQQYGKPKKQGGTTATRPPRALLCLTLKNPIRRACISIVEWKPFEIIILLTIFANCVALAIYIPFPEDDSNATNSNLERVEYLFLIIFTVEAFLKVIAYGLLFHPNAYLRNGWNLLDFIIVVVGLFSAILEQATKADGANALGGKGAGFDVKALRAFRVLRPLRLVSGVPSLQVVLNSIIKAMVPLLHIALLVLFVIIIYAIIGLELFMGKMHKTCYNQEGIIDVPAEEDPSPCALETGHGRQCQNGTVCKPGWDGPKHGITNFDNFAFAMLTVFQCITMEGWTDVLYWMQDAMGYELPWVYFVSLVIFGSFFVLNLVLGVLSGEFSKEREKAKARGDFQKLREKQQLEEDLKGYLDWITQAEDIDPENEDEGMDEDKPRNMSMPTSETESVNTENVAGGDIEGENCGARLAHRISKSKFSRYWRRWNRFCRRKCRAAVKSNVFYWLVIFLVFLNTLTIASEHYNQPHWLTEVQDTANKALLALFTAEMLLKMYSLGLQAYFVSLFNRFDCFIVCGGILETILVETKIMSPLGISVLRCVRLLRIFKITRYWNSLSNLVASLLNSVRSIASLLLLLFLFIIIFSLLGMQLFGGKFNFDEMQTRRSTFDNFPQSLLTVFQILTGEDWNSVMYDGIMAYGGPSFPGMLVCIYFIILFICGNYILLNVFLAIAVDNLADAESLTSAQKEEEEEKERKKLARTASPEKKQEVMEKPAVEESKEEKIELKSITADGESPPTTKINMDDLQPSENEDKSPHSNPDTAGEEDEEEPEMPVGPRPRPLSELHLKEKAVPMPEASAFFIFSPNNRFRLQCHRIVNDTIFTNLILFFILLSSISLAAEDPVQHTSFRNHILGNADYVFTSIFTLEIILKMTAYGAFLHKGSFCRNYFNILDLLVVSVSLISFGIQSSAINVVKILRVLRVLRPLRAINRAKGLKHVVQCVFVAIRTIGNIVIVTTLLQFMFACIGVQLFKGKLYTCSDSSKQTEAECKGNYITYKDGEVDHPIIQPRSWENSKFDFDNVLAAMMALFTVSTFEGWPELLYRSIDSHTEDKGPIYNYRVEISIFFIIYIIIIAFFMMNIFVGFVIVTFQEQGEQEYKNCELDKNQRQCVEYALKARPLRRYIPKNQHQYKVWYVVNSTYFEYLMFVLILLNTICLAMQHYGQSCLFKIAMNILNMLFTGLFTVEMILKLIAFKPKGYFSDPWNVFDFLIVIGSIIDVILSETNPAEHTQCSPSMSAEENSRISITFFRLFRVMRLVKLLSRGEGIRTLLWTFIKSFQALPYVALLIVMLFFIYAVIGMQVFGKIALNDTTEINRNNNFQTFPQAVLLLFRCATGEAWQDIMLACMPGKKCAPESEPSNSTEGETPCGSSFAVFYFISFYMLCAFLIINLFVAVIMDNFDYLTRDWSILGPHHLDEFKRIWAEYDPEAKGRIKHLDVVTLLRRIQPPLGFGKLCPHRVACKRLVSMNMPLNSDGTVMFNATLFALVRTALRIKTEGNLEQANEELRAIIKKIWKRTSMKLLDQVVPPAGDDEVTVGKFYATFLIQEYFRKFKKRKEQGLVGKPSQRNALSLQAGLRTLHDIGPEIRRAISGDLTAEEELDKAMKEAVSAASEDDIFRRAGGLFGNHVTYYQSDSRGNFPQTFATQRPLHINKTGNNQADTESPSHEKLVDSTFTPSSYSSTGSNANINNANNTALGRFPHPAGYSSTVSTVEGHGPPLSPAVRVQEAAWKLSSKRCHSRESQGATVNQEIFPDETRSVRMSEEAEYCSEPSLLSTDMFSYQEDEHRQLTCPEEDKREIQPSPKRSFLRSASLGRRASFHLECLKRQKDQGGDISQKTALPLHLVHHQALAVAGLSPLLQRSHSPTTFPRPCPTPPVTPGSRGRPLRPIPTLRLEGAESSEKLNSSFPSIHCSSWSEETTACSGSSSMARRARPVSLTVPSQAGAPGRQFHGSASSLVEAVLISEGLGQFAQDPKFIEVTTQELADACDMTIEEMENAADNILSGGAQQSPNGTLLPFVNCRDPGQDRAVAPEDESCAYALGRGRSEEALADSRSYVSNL
CD274: Programmed cell death 1 ligand 1 (CD274, Homo sapiens, UniProt Q9NZQ7)
UniProt Q9NZQ7, sequence (whole entry, looked up): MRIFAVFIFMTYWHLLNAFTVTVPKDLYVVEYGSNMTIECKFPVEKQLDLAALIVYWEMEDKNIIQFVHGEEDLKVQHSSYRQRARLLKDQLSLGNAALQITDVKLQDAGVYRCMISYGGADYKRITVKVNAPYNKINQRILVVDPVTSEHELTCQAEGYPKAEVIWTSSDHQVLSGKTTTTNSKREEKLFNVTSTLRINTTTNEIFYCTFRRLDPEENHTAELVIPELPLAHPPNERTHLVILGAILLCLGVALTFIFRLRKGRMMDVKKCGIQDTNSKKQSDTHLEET
Protein AF-9 with DOT1L: Protein AF-9, with DOT1L (Homo sapiens, UniProt P42568)
UniProt P42568, sequence (whole entry, looked up): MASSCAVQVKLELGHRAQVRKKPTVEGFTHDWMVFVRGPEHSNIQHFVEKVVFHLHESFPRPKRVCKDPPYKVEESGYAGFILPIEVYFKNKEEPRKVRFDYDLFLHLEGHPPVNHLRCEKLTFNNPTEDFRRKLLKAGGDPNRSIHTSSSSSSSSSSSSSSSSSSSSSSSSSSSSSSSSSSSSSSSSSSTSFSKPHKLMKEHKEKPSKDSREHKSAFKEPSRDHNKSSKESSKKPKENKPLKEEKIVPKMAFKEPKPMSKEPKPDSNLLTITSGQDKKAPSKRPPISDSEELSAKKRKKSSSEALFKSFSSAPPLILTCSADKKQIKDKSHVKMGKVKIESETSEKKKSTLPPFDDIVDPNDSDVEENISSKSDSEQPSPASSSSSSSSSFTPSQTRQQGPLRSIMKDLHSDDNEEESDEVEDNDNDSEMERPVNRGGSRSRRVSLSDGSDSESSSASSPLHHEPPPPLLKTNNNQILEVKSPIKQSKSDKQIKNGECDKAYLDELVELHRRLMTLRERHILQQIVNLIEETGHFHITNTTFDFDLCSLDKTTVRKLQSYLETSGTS
BRD9: Bromodomain-containing protein 9 (BRD9, Homo sapiens, UniProt Q9H8M2)
UniProt Q9H8M2, sequence (whole entry, looked up): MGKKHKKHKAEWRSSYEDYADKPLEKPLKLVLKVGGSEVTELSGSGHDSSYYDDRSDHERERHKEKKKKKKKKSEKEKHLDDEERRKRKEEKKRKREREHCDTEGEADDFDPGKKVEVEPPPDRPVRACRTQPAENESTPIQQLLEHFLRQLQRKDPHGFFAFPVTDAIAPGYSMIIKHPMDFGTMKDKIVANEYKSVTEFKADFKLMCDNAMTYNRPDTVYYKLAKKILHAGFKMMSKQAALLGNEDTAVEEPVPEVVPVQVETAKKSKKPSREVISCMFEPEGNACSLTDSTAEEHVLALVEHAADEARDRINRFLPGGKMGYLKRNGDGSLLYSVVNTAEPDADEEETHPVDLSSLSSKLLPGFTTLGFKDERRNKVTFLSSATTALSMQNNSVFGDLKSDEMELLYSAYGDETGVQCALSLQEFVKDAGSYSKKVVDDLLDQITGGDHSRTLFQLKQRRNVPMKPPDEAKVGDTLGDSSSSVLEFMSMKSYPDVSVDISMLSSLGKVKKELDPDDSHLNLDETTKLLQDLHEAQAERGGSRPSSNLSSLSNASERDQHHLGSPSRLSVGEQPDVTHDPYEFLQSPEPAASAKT
AXL: Tyrosine-protein kinase receptor UFO (AXL, Homo sapiens, UniProt P30530)
UniProt P30530, sequence (whole entry, looked up): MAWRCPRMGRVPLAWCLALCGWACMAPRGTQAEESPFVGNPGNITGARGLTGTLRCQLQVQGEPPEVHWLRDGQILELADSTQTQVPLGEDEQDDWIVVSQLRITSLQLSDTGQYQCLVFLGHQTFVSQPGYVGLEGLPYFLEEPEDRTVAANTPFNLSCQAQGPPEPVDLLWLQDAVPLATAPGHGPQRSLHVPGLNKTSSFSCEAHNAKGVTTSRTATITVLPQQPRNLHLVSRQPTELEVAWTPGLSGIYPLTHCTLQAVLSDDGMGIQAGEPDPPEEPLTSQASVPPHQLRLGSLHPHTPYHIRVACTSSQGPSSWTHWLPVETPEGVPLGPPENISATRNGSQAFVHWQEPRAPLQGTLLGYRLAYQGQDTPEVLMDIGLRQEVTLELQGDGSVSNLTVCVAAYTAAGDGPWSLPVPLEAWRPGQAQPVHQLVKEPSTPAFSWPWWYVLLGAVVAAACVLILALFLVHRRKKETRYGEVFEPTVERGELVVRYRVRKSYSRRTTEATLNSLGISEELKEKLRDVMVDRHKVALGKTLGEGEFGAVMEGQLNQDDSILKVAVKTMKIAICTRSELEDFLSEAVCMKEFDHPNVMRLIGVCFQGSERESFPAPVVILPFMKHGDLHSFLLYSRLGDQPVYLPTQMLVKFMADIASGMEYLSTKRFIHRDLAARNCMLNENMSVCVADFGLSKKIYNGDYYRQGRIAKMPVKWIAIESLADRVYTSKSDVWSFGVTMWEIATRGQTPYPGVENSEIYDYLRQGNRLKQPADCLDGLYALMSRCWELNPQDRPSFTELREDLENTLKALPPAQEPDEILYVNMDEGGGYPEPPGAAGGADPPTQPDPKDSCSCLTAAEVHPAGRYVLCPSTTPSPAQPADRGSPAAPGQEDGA
IDE: Insulin-degrading enzyme (IDE, Homo sapiens, UniProt P14735)
CSNK1D: Casein kinase I isoform delta (CSNK1D, Homo sapiens, UniProt P48730)
UniProt P48730, sequence (whole entry, looked up): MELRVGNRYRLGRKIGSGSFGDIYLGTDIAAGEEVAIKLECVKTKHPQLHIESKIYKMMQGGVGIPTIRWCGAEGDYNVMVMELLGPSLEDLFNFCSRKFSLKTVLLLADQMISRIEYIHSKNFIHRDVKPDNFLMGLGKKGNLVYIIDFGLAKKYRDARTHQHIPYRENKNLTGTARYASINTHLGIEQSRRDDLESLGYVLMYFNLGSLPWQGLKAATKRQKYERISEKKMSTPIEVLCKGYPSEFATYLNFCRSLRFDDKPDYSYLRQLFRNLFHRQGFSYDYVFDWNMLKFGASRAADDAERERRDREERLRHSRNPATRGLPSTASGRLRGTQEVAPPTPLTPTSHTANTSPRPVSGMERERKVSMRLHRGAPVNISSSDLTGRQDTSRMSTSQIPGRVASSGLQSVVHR

C[C@H]1[C@H](OC(=O)CCC(=O)O)O[C@@H]2O[C@@]3(C)CC[C@H]4[C@H](C)CC[C@@H]1[C@@]24OO3  inhibition (Non-structural polyprotein pORF1, helicase domain (Hepatitis E virus genotype 1, UniProt P33424); ATPase activity, inhibitor, colorimetric; 156 µM, with: ATP 100 µM): 49.9%
Cc1ccc(C(=O)Nc2ccc3ccccc3c2)o1  inhibition (Cacna1c; ion current, whole-cell patch-clamp; 10 µM): 7.38%
Cn1cc(-c2cnc3ccc(NC(=O)Nc4ccc(F)c(Br)c4)cc3n2)cn1  inhibition (MAP3K1 (Homo sapiens, UniProt Q13233); kinase binding, KiNativ profiling, refers to: Lys2 peptide; PANC-1 lysate; 1.25 µM): 30%
Cc1c(COc2ccc(CN3CCCCC3C(=O)NCCCCCCC(=O)N(C)CCCC34CCC(c5ccccc53)c3ccccc34)cc2Br)cccc1-c1ccccc1 (stereo not drawn)  inhibition (CD274; binding, inhibitor, HTRF; 1 µM): 27.1 ± 2.4%
c1cc(-c2ccc3ncc(OCC4CCNCC4)nc3c2)ccc1CN1CCOCC1  inhibition (Protein AF-9 with DOT1L; DOT1L binding, AlphaLISA; 10 µM): 14.2%
CC(=O)c1cc(-c2cccc(C(F)(F)F)c2)c2ccccn12  inhibition (BRD9; AlphaScreen; 1 µM): 60.2%
O=C(Nc1cccc2c(=O)cc(-c3nnn[nH]3)oc12)c1ccc(OCCCCc2ccccc2)cc1  inhibition (Volume-regulated anion channel subunit LRRC8C, part LRRC8A IL1 chimera (LRRC8C, Homo sapiens, UniProt Q8TDW0, E6A); ion current, inhibitor, whole-cell patch clamp; HCT LRRC8-/- cells; 10 µM, +100 mV): 91.5% and 97.4% and 96.8% and 94.2%
Ic1cccc2cnccc12  inhibition (sodium channel site 2 (rat); radioligand binding, inhibitor; 10 µM): 10%
CC[C@@H]1[C@H](F)C(=O)N[C@@H]1COc1nccc2cc(C(N)=O)c(OC)cc12  inhibition (AXL; ATP-site probe binding, inhibitor, ActivX ATP probe profiling; THP-1 cell lysate; 0.04 mM, activation loop site): -4.1%
CC(C)(C)c1ccc(-c2ccc3ncc(OCC4CCNCC4)nc3c2)cc1  inhibition (Protein AF-9 with DOT1L; DOT1L binding, AlphaLISA; 10 µM): 9 to 18%
NC/C(=C\F)COc1cccc(Cn2c(=S)[nH]c(=O)c3[nH]cnc32)c1  inhibition (GABBR1 (Homo sapiens, UniProt Q9UBS5); radioligand binding; 10 µM): < 50%
Cc1ccc(Nc2ccc3ncc(OCC4CCNCC4)nc3c2)cc1  inhibition (Protein AF-9 with DOT1L; DOT1L binding, AlphaLISA; 10 µM): 43%
COc1cc(OC)cc(-c2cc(C(C)=O)n3ccccc23)c1  inhibition (BRD9; AlphaScreen; 1 µM): > 90%
COc1ccc(C(=O)/C=C/c2cccc(-c3cccc(-c4ccc(CNCCN)c(OC)n4)c3C)c2)cc1  inhibition (CD274; binding, inhibitor, HTRF; 1 µM): 6 ± 0.8%
CN1CC(Oc2cnc(C#N)cc2-c2ccn3nc(NC(=O)C4CC4)cc3c2)C1  inhibition (PHKG2 (Homo sapiens, UniProt P15735); inhibitor, KinaseProfiler panel; 1 µM): 0%
CC1CCN(c2ccc(Nc3ccc4ncc(OCC5CCNCC5)nc4c3)cc2)CC1  inhibition (Protein AF-9 with DOT1L; DOT1L binding, AlphaLISA; 10 µM): 64%
COc1cc2nccc(Oc3ccc(NC(=O)c4cc5c(n(-c6ccccc6)c4=O)CCCC5=O)nc3)c2cc1OC  inhibition (AXL; plasma inhibitory activity; human patients; 10 mg/day): 84 to 100%
c1ccc(-c2ccc(Nc3ccc4ncc(OCC5CCNCC5)nc4c3)cc2)cc1  inhibition (Protein AF-9 with DOT1L; DOT1L binding, AlphaLISA; 10 µM): 65%
Cc1ccc(-n2nc(C)c3conc3c2=O)cc1  inhibition (GABAA receptor; binding, radioligand displacement; concentration not given, with: muscimol radioligand): -13.4%
COc1cc(-c2cc(C(C)=O)n3ccccc23)cc(OC)c1Cn1ccnc1  inhibition (BRD9; AlphaScreen; 1 µM): 94.7%
Cc1c(COc2ccc(CN3CCCCC3C(=O)NCCCCNC(=O)CN(C)CCCC34CCC(c5ccccc53)c3ccccc34)cc2Br)cccc1-c1ccccc1 (stereo not drawn)  inhibition (CD274; binding, inhibitor, HTRF; 1 µM): 13.8 ± 1.6%
FC(F)(F)c1ccc(Nc2ccc3ncc(OCC4CCNCC4)nc3c2)cc1  inhibition (Protein AF-9 with DOT1L; DOT1L binding, AlphaLISA; 10 µM): 19 to 40%
CN1CCN(c2cc(-c3ccncc3)c(-c3ccc4ccccc4c3)nn2)CC1  inhibition (CXCR1 (Homo sapiens, UniProt P25024); antagonist, FLIPR; 10 µM): 10.7%
OCCCN1CC[C@@H]2C[C@H]1c1cc(-c3ccc(C(F)(F)F)cc3)ccc12  inhibition (ADRA1B (Homo sapiens, UniProt P35368); radioligand binding, PDSP competition binding; 10 µM): < 50%
Cc1nn(-c2nc3c(F)cc(F)cc3s2)c(O)c1C(c1ccc(C(F)(F)F)cc1)c1c(C)nn(-c2nc3c(F)cc(F)cc3s2)c1O  inhibition (Cyclic GMP-AMP synthase, catalytic domain; with DNA (CGAS, Homo sapiens, UniProt Q8N884); cGAS phase separation, inhibitor; 100 µM): 101%
CCOCCOCCNC(=S)NCCCC[C@H](NS(C)(=O)=O)C(=O)N[C@H](C)C(=O)N[C@@H](CCCNC(=N)N)C(N)=O  inhibition (SIRT3 (Homo sapiens, UniProt Q9NTG7); enzyme activity, inhibitor; 10 µM): < 5%
Cc1cc(S(=O)(=O)N2CCCCN3[C@H](CO)[C@@H](c4ccc(-c5cccc(C)c5C)cc4)[C@@H]3C2)n(C)n1  EC50 (IDE; enzyme activity, inhibitor, fluorescence kinetic; with: Mca-RPPGFSAFK(Dnp)-OH substrate): 24 nM
CCc1oc2ccccc2c1C(=O)c1cc(Br)c(O)c(Br)c1  inhibition (SLC22A12 (Homo sapiens, UniProt Q96S37, Y152F); uric acid uptake; HEK293T transfected with SLC22A12 Y152F; 0.5 µM, 10 min, 37 °C, mean, with: [14C]urate 200 µM): 86.4%
COc1cccc(F)c1Cn1cnc(-c2ccncc2)c1-c1ccc(F)cc1  inhibition (CSNK1D; inhibitor; 1 µM): 3%
Cc1c(COc2ccc(CN3CCCCC3C(=O)NCCCC(=O)N(C)CCCC34CCC(c5ccccc53)c3ccccc34)cc2Br)cccc1-c1ccccc1 (stereo not drawn)  inhibition (CD274; binding, inhibitor, HTRF; 1 µM): 8.5 ± 1.4%
COc1cc(-c2cc(C(C)=O)n3ccccc23)c(OC)cc1CO  inhibition (BRD9; AlphaScreen; 1 µM): 95%
c1ccc(CCCCCOCCc2ccc3[nH]cnc3c2)cc1  inhibition (ATP2A2 (Sus scrofa, UniProt P11607); ATPase activity; pig microsomes; 50 µM): ~25%
O=c1c(OS(=O)(=O)[O-])c(-c2ccc(OS(=O)(=O)[O-])c(OS(=O)(=O)[O-])c2)oc2cc(OS(=O)(=O)[O-])cc(OCc3ccc(COc4cc(OS(=O)(=O)[O-])cc5oc(-c6ccc(OS(=O)(=O)[O-])c(OS(=O)(=O)[O-])c6)c(OS(=O)(=O)[O-])c(=O)c45)cc3)c12.[Na+].[Na+].[Na+].[Na+].[Na+].[Na+].[Na+].[Na+]  inhibition (Neutrophil elastase (ELANE, Homo sapiens, UniProt P08246); elastin cleavage, elastin-Congo red; concentration not given, pH 8, 37 °C): 60 to 70%
CCCC[C@H]1C(=O)N(C)[C@@H](CCCC)C(=O)N[C@@H](CCCNC(=N)N)C(=O)N[C@H](C(=O)NCC(N)=O)CSCC(=O)N[C@@H](Cc2ccccc2)C(=O)N(C)[C@@H](C)C(=O)N[C@@H](CC(N)=O)C(=O)N2CCC[C@H]2C(=O)N[C@@H](Cc2c[nH]cn2)C(=O)N[C@@H](CC(C)C)C(=O)N[C@@H](CO)C(=O)N[C@@H](Cc2c[nH]c3ccccc23)C(=O)N[C@@H](CO)C(=O)N[C@@H](Cc2c[nH]c3ccccc23)C(=O)N1C  inhibition (Programmed cell death 1 ligand 1, with PD-1 (CD274, Homo sapiens, UniProt Q9NZQ7); PD-1/PD-L1 binding, ELISA; 10 µM): 97.6 ± 0.6%
Cc1ccc(-c2ccc([C@@H]3[C@@H](CO)N4CCCCN(S(=O)(=O)c5ccccc5C)C[C@@H]34)cc2)cc1C  EC50 (IDE; enzyme activity, inhibitor, fluorescence kinetic; with: Mca-RPPGFSAFK(Dnp)-OH substrate): 140 nM
COc1cc(C(=O)NS(=O)(=O)c2ccccc2C)ccc1Cc1cn(C)c2ccc(NC(=O)OC3CCCC3)cc12  inhibition (Volume-regulated anion channel subunit LRRC8C, part LRRC8A IL1 chimera (LRRC8C, Homo sapiens, UniProt Q8TDW0, L105R); ion current, inhibitor, whole-cell patch clamp; HCT LRRC8-/- cells; 3 µM, +100 mV): 11% and 6.19% and 30.2% and 12.7% and 21% and 11.2%
Cc1cccc(-c2nc[nH]c2-c2ccncc2)c1  inhibition (CSNK1D; kinase activity; 1 µM): 4%
[2H]c1cc(C)c(NC(=O)c2cnc(Nc3cc(N4CCCCC4)nc(C)n3)s2)c(Cl)c1  inhibition (RET (Homo sapiens, UniProt P07949, Y791F); 0.01 µM): < 30%
CC[C@]12CCCN3CCc4c([nH]c5ccccc45)[C@]31N(Cc1cn(Cc3ccccc3)nn1)C(=O)C2  inhibition (GPR119 (Homo sapiens, UniProt Q8TDV5); beta-arrestin recruitment, antagonist, PathHunter chemiluminescence; 20 µM, with: agonist at EC80): 30%
COc1ccc(OC)c(NC(=O)COC(=O)COc2ccc(Nc3ccccc3)cc2)c1  inhibition (uncharacterized protein (Erigeron canadensis, UniProt A0A8M0FGR5); enzyme activity; 100 mg/L): > 30%
Cc1cc(O)c(-c2ccc([C@@H](C)CN(C)C)cc2)c2c1[nH]c(=O)c1sccc12  inhibition (Diacylglycerol kinase eta (DGKH, Homo sapiens, UniProt Q86XP1); inhibitor, KiNativ probe labelling; cell lysate; 0.1 µM): 13.5%
CCC(=O)c1cc(-c2cc(OC)c(Cn3ccnc3)cc2OC)c2ccccn12  inhibition (BRD9; AlphaScreen; 1 µM): 90.7%
c1cc(C2CCCCC2)ccc1Nc1ccc2ncc(OCC3CCNCC3)nc2c1  inhibition (Protein AF-9 with DOT1L; DOT1L binding, AlphaLISA; 10 µM): 49%
COc1cc(-c2cc(C(C)=O)n3ccccc23)c(OC)cc1C(=O)N(C)C  inhibition (BRD9; AlphaScreen; 1 µM): 95.5%
CC(C)c1noc2ncc(C(=O)c3ccccc3O)cc12  inhibition (Cacna1c; ion current, inhibitor, whole-cell patch clamp; 10 µM): 7.71% and 15.3% and 27.3% and 7.33% and 20.3%
